Experimental data collected from several papers.
Each line is one published result; not all experiments were run side by side. “And” joins repeats or separate records; there may be more than shown. ± marks the error that the study gave.

SMILES	tested on	assay	system	setting	scale	measurement	value
O=c1ccn([C@@H]2O[C@H](CO)[C@@H](O)[C@H]2O)c(=O)[nH]1	–	binding, MIDAS equilibrium dialysis LC-MS	A2AR-BRIL thermostabilized	concentration not given	baseline: no-protein control	log2 fold change	-0.146
CSc1cc(Oc2ccnc3[nH]c(=O)cnc23)ccc1NC(=O)Nc1cc(C(C)(C)C)nn1-c1ccccc1	patient-derived cell line	RPPA, measured: mTOR phosphosite 2448	human	1 µM, 4 h	baseline: DMSO	phospho/total ratio	0.46
CC(C)n1ncc2c(C(=O)NCC3(C)CNC3)cc(C3CC3)nc21	Enterovirus D68	viral replication	RD, recombinant wild-type US/MO/14-18947	0.3 µM	baseline: untreated	plaque area	0%
O=C(O)CNC(=O)Cc1ccccc1	–	–	ventricular cardiomyocytes, C57BL/6 mouse	dose not given, 0.32 s	–	sarcomere length	1.72 µm
NCC(O)CCC(N)C(=O)O (racemic)	–	binding, MIDAS equilibrium dialysis LC-MS	A2AR-BRIL thermostabilized	concentration not given	baseline: no-protein control	log2 fold change	-0.0925
O=C(/C=C/C=C/C=C/C1CCCCC1)NC1=C[C@@](O)(/C=C/C=C/C=C/C(=O)NC2=C(O)CCC2=O)[C@@H]2O[C@@H]2C1=O	HuP-T4	cell growth, CellTiter-Glo	–	78 h	–	GI50	11.2 µM
COCC(=O)N1CCC[C@H](C(=O)NCc2nc(-c3ccc(C#N)cc3)cs2)C1	Plasmodium falciparum	SYBR Green growth	asexual blood-stage parasites, 3D7	72 h	–	EC50	0.034 ± 0.0064 µM
Cn1cc(-c2ccc(-c3cncc(Cl)c3N3CCC4(CCNC4=O)CC3)cc2)cn1	COLO 205	gene expression, microarray, measured: EIF4EBP1 mRNA	–	concentration not given, 2 h	baseline: untreated cells	log2 fold change	2.03
CCOCC(=O)N1CCO[C@H](C(=O)NCc2nc(-c3ccc(C)nc3)cs2)C1	Plasmodium falciparum	SYBR Green growth	asexual blood-stage parasites, 3D7	72 h	–	EC50	0.1 ± 0.014 µM
COc1cnc2cccc(N3CCc4c(cc(Cn5ccnc5C)cc4-c4cn(C)nc4C(F)(F)F)C3=O)c2c1	RERF-LC-MS	cell growth, inhibitor	–	120 h	–	EC50	> 30 µM
CC[S+]([O-])c1nc(-c2ccccc2)cc(C(F)(F)F)n1 (stereo not shown)	transportin-1/2	FUS nuclear import, high content imaging	HeLa Kyoto reporter	5 µM, 2 h	–	cells with nuclear reporter	95.7% and 94.1%
O=CC[C@H](O)[C@H](O)CO	–	binding, MIDAS equilibrium dialysis LC-MS	A2AR-BRIL thermostabilized	concentration not given	baseline: no-protein control	log2 fold change	-0.474
N#Cc1ccc2c(c1)[C@H]1CCCN(C(=O)c3ccc4[nH]cnc4c3)[C@H]1C2	–	–	T2DM patients with overweight or obesity, plasma	oral, 20 mg, day 15 (360 h), multiple dosing, mean	–	fasting plasma insulin	18.5 mU/L
OC(CCN1CCCCC1)(c1ccccc1)C1CC2C=CC1C2 (stereo not shown)	–	resting-state EEG	healthy elderly humans	oral, 2 mg, eyes open, LS mean	–	gamma power, EEG, Pz-O1	0.9 µV²
O=C(O)CO	–	binding, MIDAS equilibrium dialysis LC-MS	A2AR-BRIL thermostabilized	concentration not given	baseline: no-protein control	log2 fold change	-0.674
CCn1cc(-c2cc(Cn3ccoc3=N)cc3c2CCN([C@@H](C)c2cc(OC)ccn2)C3=O)c(C(F)(F)F)n1	RL	cell growth	–	120 h	–	EC50	0.0208 µM
Nc1nc(-c2ccccc2)nc2[nH]nc(Nc3ccc(C(F)(F)F)cc3)c12	coxsackievirus B3	–	NMRI mouse, CVB3 chronic myocarditis	oral, 100 mg/kg twice daily, day 1-7, day 0	direction not given	clinical score	0
CC(C)C[C@H](N)C(=O)O	–	binding, MIDAS equilibrium dialysis LC-MS	A2AR-BRIL thermostabilized	concentration not given	baseline: no-protein control	log2 fold change	-0.14
O=P1(C2CCCCC2)CCCCC1	SW480	annexin V/PI flow cytometry	–	IC50, 72 h	–	early apoptotic cells	2.55%
O=C1C[C@@H](C(=O)O)NC(=O)N1	–	binding, MIDAS equilibrium dialysis LC-MS	A2AR-BRIL thermostabilized	concentration not given	baseline: no-protein control	log2 fold change	-0.827
CC(=O)N1CCC[C@H](C(=O)NCc2nc(-c3ccccc3)cs2)C1	Plasmodium falciparum	SYBR Green growth	asexual blood-stage parasites, 3D7	72 h	–	EC50	1.3 ± 0.55 µM
O=c1ccn([C@H]2C[C@H](O)[C@@H](CO)O2)c(=O)[nH]1	–	binding, MIDAS equilibrium dialysis LC-MS	A2AR-BRIL thermostabilized	concentration not given	baseline: no-protein control	log2 fold change	0.0927
CCn1cc(-c2cc(Cn3ccnc3)cc3c2CCN([C@H](c2cc(OC)ccn2)C2CC2)C3=O)c(C(F)(F)F)n1	WM-115	cell growth, inhibitor	–	120 h	–	EC50	> 30 µM
O=C(O)CNC(=O)c1ccco1	–	binding, MIDAS equilibrium dialysis LC-MS	A2AR-BRIL thermostabilized	concentration not given	baseline: no-protein control	log2 fold change	-0.556
COCC(=O)N1CCC[C@H](C(=O)NCc2nc(-c3cncnc3)cs2)C1	Plasmodium falciparum	SYBR Green growth	asexual blood-stage parasites, 3D7	72 h	–	EC50	0.64 ± 0.26 µM
